Measured values of several laboratories.
A part holds a random share of what one study measured.
Sequence of UniProt Q9BXA7 (whole entry, looked up): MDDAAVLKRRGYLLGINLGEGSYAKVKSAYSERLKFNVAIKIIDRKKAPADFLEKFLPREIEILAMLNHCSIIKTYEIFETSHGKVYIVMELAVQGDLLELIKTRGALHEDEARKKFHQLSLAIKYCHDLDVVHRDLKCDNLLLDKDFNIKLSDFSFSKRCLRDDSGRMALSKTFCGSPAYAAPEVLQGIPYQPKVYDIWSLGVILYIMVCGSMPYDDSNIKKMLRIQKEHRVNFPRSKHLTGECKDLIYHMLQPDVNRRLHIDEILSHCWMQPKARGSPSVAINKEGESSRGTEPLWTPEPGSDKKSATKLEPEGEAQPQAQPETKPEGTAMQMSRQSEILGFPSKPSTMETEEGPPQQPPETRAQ
Sequence of UniProt P57058 (whole entry, looked up): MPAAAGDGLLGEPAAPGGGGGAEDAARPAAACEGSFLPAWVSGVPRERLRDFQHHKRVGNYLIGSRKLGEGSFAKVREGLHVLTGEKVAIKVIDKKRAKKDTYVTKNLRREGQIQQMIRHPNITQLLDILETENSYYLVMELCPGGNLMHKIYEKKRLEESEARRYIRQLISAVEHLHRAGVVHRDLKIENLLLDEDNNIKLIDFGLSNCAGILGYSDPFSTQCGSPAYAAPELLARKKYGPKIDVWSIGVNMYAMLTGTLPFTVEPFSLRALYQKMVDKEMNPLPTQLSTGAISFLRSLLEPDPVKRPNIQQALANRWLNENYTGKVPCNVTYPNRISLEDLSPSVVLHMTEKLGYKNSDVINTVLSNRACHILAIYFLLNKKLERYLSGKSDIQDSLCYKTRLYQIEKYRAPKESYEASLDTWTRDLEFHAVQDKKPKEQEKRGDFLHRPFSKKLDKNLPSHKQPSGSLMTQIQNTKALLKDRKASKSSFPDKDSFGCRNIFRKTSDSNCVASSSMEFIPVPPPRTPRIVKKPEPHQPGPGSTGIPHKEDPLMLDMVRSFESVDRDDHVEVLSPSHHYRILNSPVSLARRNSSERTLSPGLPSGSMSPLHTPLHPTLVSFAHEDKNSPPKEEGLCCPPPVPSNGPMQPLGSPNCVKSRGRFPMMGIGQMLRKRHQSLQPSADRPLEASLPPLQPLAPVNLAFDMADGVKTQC
Sequence of UniProt P34969 (whole entry, looked up): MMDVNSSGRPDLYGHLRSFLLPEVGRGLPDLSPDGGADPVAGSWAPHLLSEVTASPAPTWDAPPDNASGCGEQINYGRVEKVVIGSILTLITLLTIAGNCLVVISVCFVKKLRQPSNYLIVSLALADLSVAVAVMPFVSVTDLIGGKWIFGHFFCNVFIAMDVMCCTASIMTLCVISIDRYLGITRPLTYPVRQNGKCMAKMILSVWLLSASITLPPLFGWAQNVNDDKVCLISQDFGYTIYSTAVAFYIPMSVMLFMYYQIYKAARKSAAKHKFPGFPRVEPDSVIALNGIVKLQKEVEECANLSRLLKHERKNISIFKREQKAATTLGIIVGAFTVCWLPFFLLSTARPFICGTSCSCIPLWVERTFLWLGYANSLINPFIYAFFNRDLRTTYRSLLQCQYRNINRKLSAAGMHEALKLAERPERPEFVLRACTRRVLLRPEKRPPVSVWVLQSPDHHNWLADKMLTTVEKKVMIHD
Sequence of UniProt Q9Y2U5 (whole entry, looked up): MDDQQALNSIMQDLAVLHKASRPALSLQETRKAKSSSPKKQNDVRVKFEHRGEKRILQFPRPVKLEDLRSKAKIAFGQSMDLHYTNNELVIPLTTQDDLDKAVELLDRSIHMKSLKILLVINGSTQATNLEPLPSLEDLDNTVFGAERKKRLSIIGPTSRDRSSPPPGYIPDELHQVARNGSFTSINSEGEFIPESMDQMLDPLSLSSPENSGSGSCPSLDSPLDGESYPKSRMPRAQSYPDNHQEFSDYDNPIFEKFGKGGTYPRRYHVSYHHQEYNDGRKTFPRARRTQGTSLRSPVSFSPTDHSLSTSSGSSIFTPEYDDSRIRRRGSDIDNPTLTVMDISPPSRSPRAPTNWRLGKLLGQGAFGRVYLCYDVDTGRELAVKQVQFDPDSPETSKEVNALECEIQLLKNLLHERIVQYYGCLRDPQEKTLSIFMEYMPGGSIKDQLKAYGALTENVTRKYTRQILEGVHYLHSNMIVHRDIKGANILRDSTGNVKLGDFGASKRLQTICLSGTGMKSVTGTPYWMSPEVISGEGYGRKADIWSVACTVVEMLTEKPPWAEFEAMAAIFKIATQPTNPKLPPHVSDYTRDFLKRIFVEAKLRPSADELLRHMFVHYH
Sequence of UniProt Q8TDS7 (whole entry, looked up): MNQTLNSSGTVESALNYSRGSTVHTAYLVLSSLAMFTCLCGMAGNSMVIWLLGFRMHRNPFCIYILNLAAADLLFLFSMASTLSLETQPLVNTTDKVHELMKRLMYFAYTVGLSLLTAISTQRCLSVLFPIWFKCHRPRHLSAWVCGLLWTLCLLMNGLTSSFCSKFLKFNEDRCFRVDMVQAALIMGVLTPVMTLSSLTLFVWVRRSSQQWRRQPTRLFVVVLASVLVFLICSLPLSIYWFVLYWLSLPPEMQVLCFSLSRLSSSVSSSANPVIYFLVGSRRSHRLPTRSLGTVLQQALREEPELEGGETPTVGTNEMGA
Sequence of UniProt Q14831 (whole entry, looked up): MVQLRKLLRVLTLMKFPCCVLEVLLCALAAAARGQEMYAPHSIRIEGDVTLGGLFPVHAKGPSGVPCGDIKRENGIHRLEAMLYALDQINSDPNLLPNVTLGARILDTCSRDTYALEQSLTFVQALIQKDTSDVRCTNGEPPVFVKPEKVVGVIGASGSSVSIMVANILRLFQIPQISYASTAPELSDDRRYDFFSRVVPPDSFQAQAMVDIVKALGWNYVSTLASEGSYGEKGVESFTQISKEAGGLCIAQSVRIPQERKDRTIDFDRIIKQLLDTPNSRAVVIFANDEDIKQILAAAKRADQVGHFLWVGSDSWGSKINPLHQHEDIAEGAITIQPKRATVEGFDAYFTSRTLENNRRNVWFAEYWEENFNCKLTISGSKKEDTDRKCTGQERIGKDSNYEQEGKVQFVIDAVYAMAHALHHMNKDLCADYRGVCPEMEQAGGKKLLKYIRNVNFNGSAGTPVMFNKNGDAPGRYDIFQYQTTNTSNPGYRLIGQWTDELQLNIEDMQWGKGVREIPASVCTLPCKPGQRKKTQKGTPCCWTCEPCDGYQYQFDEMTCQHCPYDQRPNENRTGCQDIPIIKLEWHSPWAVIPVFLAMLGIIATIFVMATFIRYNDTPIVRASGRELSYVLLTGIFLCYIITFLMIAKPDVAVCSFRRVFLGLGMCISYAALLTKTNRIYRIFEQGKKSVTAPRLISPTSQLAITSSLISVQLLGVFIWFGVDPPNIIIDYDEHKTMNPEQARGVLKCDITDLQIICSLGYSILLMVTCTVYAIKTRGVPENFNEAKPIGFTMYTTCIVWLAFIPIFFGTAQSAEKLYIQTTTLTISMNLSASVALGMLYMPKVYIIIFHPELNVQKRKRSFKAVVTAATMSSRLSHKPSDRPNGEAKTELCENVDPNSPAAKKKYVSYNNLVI
Sequence of UniProt Q9UKI8 (whole entry, looked up): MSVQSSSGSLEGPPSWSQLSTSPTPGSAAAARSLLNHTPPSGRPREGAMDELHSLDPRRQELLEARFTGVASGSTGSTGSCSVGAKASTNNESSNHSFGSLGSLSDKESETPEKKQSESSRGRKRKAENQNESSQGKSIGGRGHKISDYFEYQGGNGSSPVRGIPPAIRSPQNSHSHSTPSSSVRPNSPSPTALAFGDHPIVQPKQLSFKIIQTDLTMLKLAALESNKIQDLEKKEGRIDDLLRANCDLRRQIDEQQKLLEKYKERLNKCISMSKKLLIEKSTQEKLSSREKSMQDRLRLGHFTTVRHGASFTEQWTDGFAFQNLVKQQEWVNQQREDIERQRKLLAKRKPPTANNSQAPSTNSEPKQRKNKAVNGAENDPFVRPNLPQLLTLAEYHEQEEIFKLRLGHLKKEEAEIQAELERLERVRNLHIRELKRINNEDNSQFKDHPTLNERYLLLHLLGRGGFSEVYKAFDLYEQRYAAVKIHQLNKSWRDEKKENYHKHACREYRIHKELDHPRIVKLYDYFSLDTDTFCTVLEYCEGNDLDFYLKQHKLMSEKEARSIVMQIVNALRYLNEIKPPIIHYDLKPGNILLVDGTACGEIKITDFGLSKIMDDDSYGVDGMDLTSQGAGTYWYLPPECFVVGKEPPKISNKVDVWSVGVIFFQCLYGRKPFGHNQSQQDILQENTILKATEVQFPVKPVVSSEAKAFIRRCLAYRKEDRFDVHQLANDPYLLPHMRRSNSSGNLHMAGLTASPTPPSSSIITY
Sequence of UniProt P43657 (whole entry, looked up): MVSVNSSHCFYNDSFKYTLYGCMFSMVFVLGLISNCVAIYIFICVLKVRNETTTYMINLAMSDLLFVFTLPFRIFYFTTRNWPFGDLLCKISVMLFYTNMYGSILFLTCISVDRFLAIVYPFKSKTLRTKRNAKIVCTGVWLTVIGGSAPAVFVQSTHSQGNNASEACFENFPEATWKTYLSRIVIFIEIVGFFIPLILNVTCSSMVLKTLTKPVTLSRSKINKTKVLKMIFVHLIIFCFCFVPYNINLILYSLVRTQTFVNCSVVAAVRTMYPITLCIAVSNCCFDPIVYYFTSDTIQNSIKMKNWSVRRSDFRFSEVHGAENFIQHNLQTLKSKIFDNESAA

Sample 1 — Structure (SMILES): CC(C)CN(C)c1nc(N)c(C(=O)N=C(N)N)nc1Cl; effect on: β-arrestin recruitment; action: agonist; technique: PRESTO-Tango; tested at: 10 µM; relative to: untreated; endpoint: fold over basal
target = C-C chemokine receptor-like 2 (Homo sapiens, UniProt O00421); value = 0.99
target = CRHR1 (Homo sapiens, UniProt P34998); value = 1.52
target = HTR7 (Homo sapiens, UniProt P34969); value = 0.82
target = S1PR1 (Homo sapiens, UniProt P21453); value = 1.3
target = C5AR2 (Homo sapiens, UniProt Q9P296); value = 0.95
target = G-protein coupled receptor family C group 5 member D (GPRC5D, Homo sapiens, UniProt Q9NZD1); value = 0.66
target = NMUR1 (Homo sapiens, UniProt Q9HB89); value = 0.93
target = Lysophosphatidic acid receptor 6 (Homo sapiens, UniProt P43657); value = 0.85
target = CNR1 (Homo sapiens, UniProt P21554); value = 0.75
target = MRGPRD (Homo sapiens, UniProt Q8TDS7); value = 1.1
target = GRM7 (Homo sapiens, UniProt Q14831); value = 0.84 fold
target = Probable G-protein coupled receptor 63 (GPR63, Homo sapiens, UniProt Q9BZJ6); value = 0.76

Sample 2 — effect on: enzyme activity; action: inhibitor; tested at: 10 µM; endpoint: inhibition
Target: Calcium/calmodulin-dependent protein kinase type II subunit alpha (CAMK2A, Homo sapiens, UniProt Q9UQM7)
Sequence of UniProt Q9UQM7 (whole entry, looked up): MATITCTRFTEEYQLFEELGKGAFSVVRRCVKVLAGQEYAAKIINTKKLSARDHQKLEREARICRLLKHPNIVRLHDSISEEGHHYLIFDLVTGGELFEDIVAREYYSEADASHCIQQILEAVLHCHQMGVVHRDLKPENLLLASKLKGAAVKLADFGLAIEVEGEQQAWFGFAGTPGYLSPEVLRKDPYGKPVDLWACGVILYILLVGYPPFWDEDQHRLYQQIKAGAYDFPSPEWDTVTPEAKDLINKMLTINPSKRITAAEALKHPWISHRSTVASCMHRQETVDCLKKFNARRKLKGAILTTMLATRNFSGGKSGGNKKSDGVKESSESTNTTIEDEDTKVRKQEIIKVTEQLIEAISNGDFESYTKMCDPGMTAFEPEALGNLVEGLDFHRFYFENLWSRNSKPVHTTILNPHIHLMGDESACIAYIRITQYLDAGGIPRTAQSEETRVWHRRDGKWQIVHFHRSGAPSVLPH
Structure (SMILES) = CCCN(CCC)S(=O)(=O)c1ccc(C(=O)O)cc1; value = 0%
Structure (SMILES) = C[C@H]1O[C@@H](O[C@H]2CC[C@@]3(C)[C@@H](CC[C@]4(C)[C@@H]3C=CC3=C5CC(C)(C)CC[C@]5(CO)[C@@H](O)C[C@]34C)[C@]2(C)CO)[C@H](O)[C@@H](O[C@@H]2O[C@H](CO)[C@@H](O)[C@H](O)[C@H]2O)[C@H]1O; value = -23%
Structure (SMILES) = CCCCCCCCCCCC(C)=O; value = -19%
Structure (SMILES) = O=C1CCCCN1; value = -26%
Structure (SMILES) = Nc1nc2c(c(=O)[nH]1)N(C=O)C(CNc1ccc(C(=O)N[C@@H](CCC(=O)O)C(=O)O)cc1)CN2 (stereo partly shown); value = -3%
Structure (SMILES) = C[C@@H]1OC(O)[C@@H](O)[C@H](O)[C@@H]1O (single isomer, unassigned; (-)); value = -34%
Structure (SMILES) = COc1cc(OC)c2c(=O)cc(-c3ccccc3)oc2c1; value = 5%

Sample 3 — effect on: cell-free assay; technique: competition with immobilised ligand; tested at: 1 µM; endpoint: remaining binding
Compound: CC1=C(C#N)C(c2ccc3c(c2)c(NC(=O)c2ccccc2C)nn3C)C(C#N)=C(C)N1
target = TLK1 (Homo sapiens, UniProt Q9UKI8); value = 88%
target = HUNK (Homo sapiens, UniProt P57058); value = 78%
target = FGFR3 (Homo sapiens, UniProt P22607, G697C); value = 93%
target = PIK3CG (Homo sapiens, UniProt P48736); value = 84%
target = CSK (Homo sapiens, UniProt P41240); value = 85%
target = GRK4 (Homo sapiens, UniProt P32298); value = 100%
target = MAP3K2 (Homo sapiens, UniProt Q9Y2U5); value = 100%
target = PAK6 (Homo sapiens, UniProt Q9NQU5); value = 100%
target = NIM1K (Homo sapiens, UniProt Q8IY84); value = 86%
target = MTOR (Homo sapiens, UniProt P42345); value = 75%
target = Tyrosine-protein kinase ABL1, phosphorylated (ABL1, Homo sapiens, UniProt P00519, F317L); value = 91%
target = MARK3 (Homo sapiens, UniProt P27448); value = 92%
target = NUAK2 (Homo sapiens, UniProt Q9H093); value = 81%
target = SIK3 (Homo sapiens, UniProt Q9Y2K2); value = 81%
target = IRAK1 (Homo sapiens, UniProt P51617); value = 75%
target = TSSK1B (Homo sapiens, UniProt Q9BXA7); value = 100%
target = PRKCH (Homo sapiens, UniProt P24723); value = 94%
target = GRK3 (Homo sapiens, UniProt P35626); value = 93%
target = Tyrosine-protein kinase ABL1, non-phosphorylated (ABL1, Homo sapiens, UniProt P00519, Q252H); value = 100%
target = MAP3K13 (Homo sapiens, UniProt O43283); value = 99%

Sample 4 — host: human; medium: microsomes or S9; tested at: 2 µM; time: 0.5 h; endpoint: remaining compound
SMILES = CN1CCN(c2nc(O)c3c(-c4ccsc4)ccnc3n2)CC1; value = 71.4%
SMILES = Cc1ccc(S(=O)(=O)NCc2ccccc2)c(C)c1N(C)S(=O)(=O)c1ccccc1; value = 15.6%
SMILES = CCn1nc(C)c(CNc2nnc(C3CCCCC3)o2)c1C; value = 91.4%
SMILES = CN(CCOc1ccc(C2=NN(c3ccccc3)C(=O)C2)cc1)c1nc2ccccc2o1; value = 28.5%
SMILES = COc1ccc(CN2Cc3c(Cl)ccnc3C2=O)cc1OC; value = 0.224%
SMILES = CC(C)(C)c1nnc2ccc(N3CCCc4occc4C3)nn12; value = 36.7%
SMILES = CNC(=O)CCC(=O)C1=C(NC)CC(C)(C)CC1=O; value = 83.4%
SMILES = COc1ccc2c(c1)c(=O)oc1cc(OC/C=C(/C)CCC=C(C)C)ccc12; value = 88.3%
SMILES = COc1ccc(Cn2c(-c3c(C)n[nH]c3-c3ccccc3)nc3ccccc32)cc1; value = 14.1%
SMILES = COc1cc(C)c(S(=O)(=O)N2CCN(c3cc(-n4ccnc4C)ncn3)CC2)cc1C; value = 25.7%

A few entries again (sample 4):
SMILES = Cc1ccc(S(=O)(=O)NCc2ccccc2)c(C)c1N(C)S(=O)(=O)c1ccccc1; value = 15.6%
SMILES = CCn1nc(C)c(CNc2nnc(C3CCCCC3)o2)c1C; value = 91.4%
SMILES = CN(CCOc1ccc(C2=NN(c3ccccc3)C(=O)C2)cc1)c1nc2ccccc2o1; value = 28.5%
SMILES = COc1ccc(CN2Cc3c(Cl)ccnc3C2=O)cc1OC; value = 0.224%
SMILES = CC(C)(C)c1nnc2ccc(N3CCCc4occc4C3)nn12; value = 36.7%
SMILES = CNC(=O)CCC(=O)C1=C(NC)CC(C)(C)CC1=O; value = 83.4%
SMILES = COc1ccc2c(c1)c(=O)oc1cc(OC/C=C(/C)CCC=C(C)C)ccc12; value = 88.3%
